{"data": "Assay results pooled from the literature", "note": "Compare with care: the assays were run in different laboratories. ± marks the error that the study gave."}
{"Substance": "O=C[C@H](O)COP(=O)(O)O", "target": "dxs (Escherichia coli, UniProt P77488, Y392F)", "test": "substrate", "Km": "280 ± 30 µM"}
{"Substance": "O=C[C@H](O)COP(=O)(O)O", "target": "dxs (Escherichia coli, UniProt P77488, H299A)", "test": "substrate", "Km": "3.3 µM"}
{"Substance": "Oc1ccccc1", "target": "horseradish peroxidase", "test": "substrate", "Km": "1450 µM"}
{"Substance": "NC(=O)c1ccc[n+]([C@@H]2O[C@H](COP(=O)(O)OP(=O)(O)OC[C@H]3O[C@@H](n4cnc5c(N)ncnc54)[C@H](O)[C@@H]3O)[C@@H](O)[C@H]2O)c1", "target": "mtlD (Pseudomonas fluorescens, UniProt O08355, E292A)", "test": "substrate", "Km": "71 ± 5 µM"}
{"Substance": "N[C@@H](Cc1ccc(O)c(I)c1)C(=O)O", "target": "Iodotyrosine deiodinase (Haliscomenobacter hydrossis, UniProt F4KU78)", "test": "substrate", "conditions": "pH 7.4", "Km": "49 ± 10 µM"}
{"Substance": "CCCCCCCCCCCCCCCC(=O)Oc1ccc([N+](=O)[O-])cc1", "target": "Pseudomonas aeruginosa mutant alkaline lipase", "test": "substrate", "Km": "2 mg/mL"}
{"Substance": "O=C(O)C[C@H](O)C(=O)O", "target": "Probable malate:quinone oxidoreductase 1 (mqo1, Staphylococcus aureus, UniProt Q5HDJ0)", "test": "substrate, NBT reduction", "conditions": "cardiolipin/PE vesicles, together with: 1.4 mM menaquinone", "Km": "180 µM"}
{"Substance": "CCCCCCCCCCCC(=O)OC1=CC(C)(C)N([O])C(C)(C)C1", "target": "CES1 (Homo sapiens, UniProt P23141)", "Km": "36.9 ± 4.92 µM"}
{"Substance": "OCCSSCCO", "target": "glutaredoxin (Alkaliphilus oremlandii, UniProt A8MIN3, C16S)", "test": "substrate", "Km": "900 ± 200 µM"}
{"Substance": "O=[N+]([O-])c1ccc(Cl)c([N+](=O)[O-])c1", "target": "Prostaglandin D synthase (Clonorchis sinensis, UniProt G7YGL2)", "test": "substrate", "Km": "544 µM"}
{"Substance": "O=[N+]([O-])c1ccc(O)c(Cl)c1", "target": "4-nitrophenol 4-monooxygenase/4-nitrocatechol 2-monooxygenase, oxygenase component (npcA, Rhodococcus opacus, UniProt Q6F4M8)", "test": "substrate", "Km": "21.9 ± 3.34 µM"}
{"Substance": "CCCCC/C=C\\C/C=C\\C/C=C\\C/C=C\\CCCC(=O)NCCO", "target": "Faah (Rattus norvegicus, UniProt P97612)", "test": "substrate", "system": "Sprague-Dawley rats, control, rat hippocampus membranes", "Km": "0.53 ± 0.09 µM"}
{"Substance": "GGNWTT", "target": "UDP-glucose:protein N-beta-glucosyltransferase (Actinobacillus pleuropneumoniae serotype 5b, UniProt A3N2T3, D215R/Q469A)", "test": "substrate", "system": "peptide", "conditions": "15 min, pH 8.0, 37 °C, D215R mutant, together with: UDP-Glc 100 mM", "Km": "8450 ± 990 µM"}
{"note": "Some of these lines once more:"}
{"Substance": "CCCCCCCCCCCCCCCC(=O)Oc1ccc([N+](=O)[O-])cc1", "target": "Pseudomonas aeruginosa mutant alkaline lipase", "test": "substrate", "Km": "2 mg/mL"}
{"Substance": "O=[N+]([O-])c1ccc(O)c(Cl)c1", "target": "4-nitrophenol 4-monooxygenase/4-nitrocatechol 2-monooxygenase, oxygenase component (npcA, Rhodococcus opacus, UniProt Q6F4M8)", "test": "substrate", "Km": "21.9 ± 3.34 µM"}
